{"data": "Measured values from different studies", "note": "Protocols differ between the studies behind these lines. Numbers after ± are the reported error."}
{"Compound": "CC(C)C[C@H](NC(=O)C[C@H](O)[C@H](CC(C)C)NC(=O)[C@H](Cc1c[nH]cn1)NC(=O)CNC(=O)[C@@H](NC(=O)[C@H](C)NC(=O)[C@H](Cc1c[nH]c2ccccc12)NC(=O)[C@H](CCC(N)=O)NC(=O)[C@@H](Cc1ccccc1)NC(=O)CCOCCOCCOCCNC(=O)CN1CCN(CC(=O)O)CCN(CC(=O)O)CC1)C(C)C)C(N)=O [gallium-68 labelled]", "test": "microPET imaging", "test system": "mouse PC-3 xenograft, PC-3 tumour", "setting": "intravenous, 3.7 MBq, 60 min", "endpoint": "maximum tumour uptake", "value": "4.91 ± 1 %ID/g"}
{"Compound": "O=C(O)CC[C@H](NC(=O)N[C@@H](CCCCNC(=O)CCCCC[C@H](NC(=O)CCS[C@@H]1O[C@H](CO)[C@H](O)[C@H](O)[C@H]1O)C(=O)NCCCC[C@@H](NC(=O)[C@@H](Cc1ccccc1)NC(=O)[C@@H](Cc1ccc(O)c(I)c1)NC(=O)CCC(C(=O)O)N1CCN(CC(=O)O)CCN(CC(=O)O)CCN(CC(=O)O)CC1)C(=O)O)C(=O)O)C(=O)O (stereo partly drawn) [lutetium-177 labelled]", "test": "shake flask n-octanol/PBS", "setting": "pH 7.4, radiolabelled compound", "endpoint": "logP", "value": "-3.95 ± 0.12"}
{"Compound": "CCCC[C@H](NC(=O)CCCCCCCNC(=O)CN1CCN(CC(=O)O)CCN(CC(=O)O)CC1)C(=O)N[C@H]1CC(=O)NCCCC[C@@H](C(N)=O)NC(=O)[C@H](Cc2c[nH]c3ccccc23)NC(=O)[C@H](CCCNC(=N)N)NC(=O)[C@@H](Cc2ccccc2)NC(=O)[C@H](Cc2c[nH]cn2)NC1=O [copper-64 labelled]", "test system": "C57 mice, skin", "setting": "intravenous, 0.37 MBq, 24 h", "endpoint": "tissue uptake", "value": "0.02 ± 0.02 %ID/g"}
{"Compound": "CCCC[C@H](NC(=O)CNC(=O)CNC(=O)CN1CCN(CC(=O)O)CCN(CC(=O)O)CC1)C(=O)N[C@H]1CC(=O)NCCCC[C@@H](C(N)=O)NC(=O)[C@H](Cc2c[nH]c3ccccc23)NC(=O)[C@H](CCCNC(=N)N)NC(=O)[C@@H](Cc2ccccc2)NC(=O)[C@H](Cc2c[nH]cn2)NC1=O [technetium-99m labelled]", "test system": "C57 mouse, heart", "setting": "iv, 0.037 MBq, 0.5 h", "endpoint": "tissue uptake", "value": "0.74 ± 0.2 %ID/g"}
{"Compound": "N=C(N)NCCC[C@H](NC(=O)[C@H](Cc1c[nH]c2ccccc12)NC(=O)[C@H](CCC(N)=O)NC(=O)[C@H](Cc1c[nH]c2ccccc12)NC(=O)[C@H](CCCNC(=N)N)NC(=O)[C@H](Cc1c[nH]c2ccccc12)NC(=O)[C@H](CCC(N)=O)NC(=O)[C@H](Cc1c[nH]c2ccccc12)NC(=O)[C@H](CCCNC(=N)N)NC(=O)CCCCCNC(=O)/C=C/c1ccc(O)c(O)c1)C(N)=O", "test": "RP-HPLC, C18 column", "scale": "higher is more hydrophobic", "endpoint": "retention time", "value": "6.3 min"}
{"Compound": "C=C1CC[C@H](OCCCNC(=O)CCOCCOCCOCCOCCOCCOCCOCCOCCOCCOCCOCCOCCOCCOCCOCCOCCOCCOCCOCCOCCOCCOCCOCCOCCOCCOCCOCCOCCOCCOCCOCCOCCOCCOCCOCCOCCNC(=O)CCN2C(=O)CC(SC[C@H](NC(=O)[C@H](Cc3ccccc3)NC(=O)[C@H](CC(N)=O)NC(=O)[C@H](Cc3c[nH]cn3)NC(=O)[C@@H](NC(=O)[C@H](CC(=O)O)NC(=O)[C@H](CCC(N)=O)NC(=O)[C@H](CC(C)C)NC(=O)[C@H](CCCCN)NC(=O)[C@H](CCCCN)NC(=O)[C@H](CCCNC(=N)N)NC(=O)[C@H](CC(C)C)NC(=O)[C@H](Cc3c[nH]c4ccccc34)NC(=O)[C@H](CCC(=O)O)NC(=O)[C@@H](NC(=O)[C@H](CCCNC(=N)N)NC(=O)[C@H](CCC(=O)O)NC(=O)[C@H](CCSC)NC(=O)[C@H](CO)NC(=O)[C@H](CC(N)=O)NC(=O)[C@H](CC(C)C)NC(=O)[C@H](Cc3c[nH]cn3)NC(=O)[C@H](CCCCN)NC(=O)CNC(=O)[C@H](CC(C)C)NC(=O)[C@H](CC(N)=O)NC(=O)[C@H](Cc3c[nH]cn3)NC(=O)[C@H](CCSC)NC(=O)[C@H](CC(C)C)NC(=O)[C@H](CCC(N)=O)NC(=O)[C@@H](NC(=O)[C@H](CCC(=O)O)NC(=O)[C@H](CO)NC(=O)[C@@H](NC(=O)[C@@H](N)CO)C(C)C)[C@@H](C)CC)C(C)C)C(C)C)C(N)=O)C2=O)C/C1=C/C=C1\\CCC[C@]2(C)[C@@H]([C@H](C)CCCC(C)(C)O)CC[C@@H]12 (stereo partly drawn)", "test system": "Sprague Dawley rat", "setting": "subcutaneous, 14.2 µg/kg daily, 21 days", "scale": "baseline: 1 µg/kg dose", "endpoint": "dose-normalized AUC", "value": 0.99}
{"Compound": "CCCC[C@H](NC(=O)CNC(=O)CNC(=O)CN1CCN(CC(=O)O)CCN(CC(=O)O)CCN(CC(=O)O)CC1)C(=O)N[C@H]1CC(=O)NCCCC[C@@H](C(N)=O)NC(=O)[C@H](Cc2c[nH]c3ccccc23)NC(=O)[C@H](CCCNC(=N)N)NC(=O)[C@@H](Cc2ccccc2)NC(=O)[C@H](Cc2c[nH]cn2)NC1=O [lutetium-177 labelled]", "test system": "C57 mouse, female, lung", "setting": "intravenous, 0.037 MBq, 0.5 h", "endpoint": "tissue uptake", "value": "3.15 ± 0.57 %ID/g"}
{"Compound": "N=C(N)NCCC[C@@H]1NC(=O)[C@H](CCCCNC(=O)CCC(C(=O)O)N2CCCN3CCN(CCCN(CC(=O)O)CC3)CC2)NC(=O)[C@@H](Cc2ccc(O)cc2)NC(=O)[C@H](CC(=O)O)NC(=O)CNC1=O (stereo partly drawn) [copper-64 labelled]", "test system": "SCID mouse, PC-3 xenograft, tumour", "setting": "iv, dose not given, 4 h", "endpoint": "tumour uptake", "value": "1.85 ± 0.26 %ID/g"}
{"Compound": "N=C(N)NCCC[C@@H]1NC(=O)[C@H](CCCCNC(=O)CC[C@H](NC(=O)CC[C@H](NC(=O)CN2CCN(CC(=O)O)CCN(CC(=O)O)CCN(CC(=O)O)CC2)C(=O)N[C@@H](CCC(=O)NCCCC[C@@H]2NC(=O)[C@@H](Cc3ccccc3)NC(=O)[C@H](CC(=O)O)NC(=O)CNC(=O)[C@H](CCCNC(=N)N)NC2=O)C(=O)NCCCC[C@@H]2NC(=O)[C@@H](Cc3ccccc3)NC(=O)[C@H](CC(=O)O)NC(=O)CNC(=O)[C@H](CCCNC(=N)N)NC2=O)C(=O)NCCCC[C@@H]2NC(=O)[C@@H](Cc3ccccc3)NC(=O)[C@H](CC(=O)O)NC(=O)CNC(=O)[C@H](CCCNC(=N)N)NC2=O)NC(=O)[C@@H](Cc2ccccc2)NC(=O)[C@H](CC(=O)O)NC(=O)CNC1=O [indium-111 labelled]", "test system": "female athymic nu/nu mice, kidney", "setting": "intravenous, 1 h", "endpoint": "tissue uptake", "value": "7.28 ± 0.57 %ID/g"}
{"note": "Some of these lines once more:"}
{"Compound": "O=C(O)CC[C@H](NC(=O)N[C@@H](CCCCNC(=O)CCCCC[C@H](NC(=O)CCS[C@@H]1O[C@H](CO)[C@H](O)[C@H](O)[C@H]1O)C(=O)NCCCC[C@@H](NC(=O)[C@@H](Cc1ccccc1)NC(=O)[C@@H](Cc1ccc(O)c(I)c1)NC(=O)CCC(C(=O)O)N1CCN(CC(=O)O)CCN(CC(=O)O)CCN(CC(=O)O)CC1)C(=O)O)C(=O)O)C(=O)O (stereo partly drawn) [lutetium-177 labelled]", "test": "shake flask n-octanol/PBS", "setting": "pH 7.4, radiolabelled compound", "endpoint": "logP", "value": "-3.95 ± 0.12"}
